Results of several laboratories.
Lines come from different studies, so protocols differ.
Target: D(3) dopamine receptor (DRD3, Homo sapiens, UniProt P35462)
Chain of UniProt P35462 (whole entry, looked up): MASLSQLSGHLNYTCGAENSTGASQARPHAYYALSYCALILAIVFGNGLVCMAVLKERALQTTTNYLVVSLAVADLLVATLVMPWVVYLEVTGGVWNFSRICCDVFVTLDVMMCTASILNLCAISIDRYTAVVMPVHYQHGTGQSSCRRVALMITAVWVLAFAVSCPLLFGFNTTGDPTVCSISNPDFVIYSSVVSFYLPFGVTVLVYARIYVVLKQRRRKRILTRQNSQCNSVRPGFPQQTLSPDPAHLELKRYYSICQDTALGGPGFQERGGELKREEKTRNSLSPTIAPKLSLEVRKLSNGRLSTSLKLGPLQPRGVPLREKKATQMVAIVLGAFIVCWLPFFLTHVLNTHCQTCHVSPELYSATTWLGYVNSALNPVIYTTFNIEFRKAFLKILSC

COc1ccc(C(=O)Nc2c(-c3cccs3)nc3ccccn23)cc1 — inhibition (ligand displacement, radioligand; 10 µM): < 50%
Cc1ccnc(OC[C@H]2CN(CCN3CCc4ccccc43)CCO2)c1 — inhibition (radioligand binding; concentration not given, added: [3H]N-methylspiperone): 0.2%
O=C1c2sc(-c3ccc(N4CCC(CO)CC4)nc3F)nc2CCN1c1cccnc1 — inhibition (ligand displacement, radioligand; 1 µM): -3%
Cc1[nH]nc2c1N=C(c1ccccc1Cl)c1cnc(N3CCOCC3)cc1N2 — inhibition (cell-free assay; 10 µM): 36%
COc1cc(CNCCc2ccc(F)cc2)cc(Cl)c1OCC(N)=O — inhibition (enzyme activity, inhibitor; 10 µM): 16.1%
CC1Cc2ccccc2N1C(=O)CN1CCN(c2ccccc2)CC1 (stereo not shown) — inhibition (radioligand binding; concentration not given, added: [3H]N-methylspiperone): 51%
Brc1ccccc1-c1nnc(CSc2nnnn2-c2ccccc2)o1 — inhibition (ligand displacement, radioligand; 10 µM): -11%
Nc1ccccc1C(=O)NCCCN1CCN(Cc2ccccc2)CC1 — inhibition (enzyme activity, inhibitor; 10 µM): -9.7%
COCC(=O)N1CCc2cc(-c3csc(NC(=O)c4cc(OC)cc(OC)c4)n3)ccc21 — inhibition (cell-free assay; 10 µM): 7%
COC(=O)c1ccccc1NC(=O)CN1CCN(c2cccc(C(F)(F)F)c2)CC1 — inhibition (enzyme activity, inhibitor; 10 µM): -9.5%
Cn1ccc2cc(-n3c(=O)[nH]c4sc5c(c4c3=O)CCCC5)ccc21 — inhibition (cell-free assay, radioligand; 10 µM): 10%
NS(=O)(=O)c1ccc(CCNCc2ccc(-c3ccccc3F)o2)cc1 — inhibition (enzyme activity, inhibitor; 10 µM): 58.5%
c1ccc(OC[C@H]2CN(CCN3CCc4ccccc43)CCO2)nc1 — inhibition (radioligand binding; concentration not given, added: [3H]N-methylspiperone): 85.6%
